Experimental data pooled from the literature.
Compare with care: the assays were run in different laboratories.
Technique: steady-state kinetics
B1: Pck1 A467G (Rattus norvegicus, UniProt P07379); chain MPPQLHNGLDFSAKVIQGSLDSLPQEVRKFVEGNAQLCQPEYIHICDGSEEEYGRLLAHMQEEGVIRKLKKYDNCWLALTDPRDVARIESKTVIITQEQRDTVPIPKSGQSQLGRWMSEEDFEKAFNARFPGCMKGRTMYVIPFSMGPLGSPLAKIGIELTDSPYVVASMRIMTRMGTSVLEALGDGEFIKCLHSVGCPLPLKKPLVNNWACNPELTLIAHLPDRREIISFGSGYGGNSLLGKKCFALRIASRLAKEEGWLAEHMLILGITNPEGKKKYLAAAFPSACGKTNLAMMNPTLPGWKVECVGDDIAWMKFDAQGNLRAINPENGFFGVAPGTSVKTNPNAIKTIQKNTIFTNVAETSDGGVYWEGIDEPLAPGVTITSWKNKEWRPQDEEPCAHPNSRFCTPASQCPIIDPAWESPEGVPIEGIIFGGRRPAGVPLVYEALSWQHGVFVGAAMRSEATAGAEHKGKVIMHDPFAMRPFFGYNFGKYLAHWLSMAHRPAAKLPKIFHVNWFRKDKNGKFLWPGFGENSRVLEWMFGRIEGEDSAKLTPIGYVPKEDALNLKGLGDVNVEELFGISKEFWEKEVEEIDKYLEDQVNADLPYEIERELRALKQRISQM
B2: mleA (Oenococcus oeni, UniProt Q48796); chain MTDPVSILNDPFINKGTAFTEAEREELGLNGLLPAKVQALQEQVDQTYAQFQSKVSNLEKRLFLMEIFNTNHVLFYKLFSQHVVEFMPIVYDPTIADTIENYSELFVEPQGAAFLDINHPENIQSTLKNAANGRDIKLLVVSDAEGILGIGDWGVQGVDIAVGKLMVYTVAAGIDPSTVLAVVIDAGTNNEKLLKDPMYLGNKFNRVRGDKYYDFIDKFVNHAESLFPNLYLHWEDFGRSNASNILNSYKDKIATFNDDIQGTGIVVLAGVLGALKISGQKLTDQTYMSFGAGTAGMGIVKQLHEEMVEQGLSDEEAKKHFFLVDKQGLLFDDDPDLTPEQKPFAAKRSDFKNANQLTNLQAAVEAVHPTILVGTSTHPNSFTEEIVKDMSGYTERPIIFPISNPTKLAEAKAEDVLKWSNGKALIGTGVPVDDIEYEGNAYQIGQANNALIYPGLGFGAIAAQSKLLTPEMISAAAHSLGGIVDTTKVGAAVLPPVSKLADFSRTVAVAVAKKAVEQGLNRQPIDDVEKAVDDLKWDPKY
B3: ASRGL1 (Homo sapiens, UniProt Q7L266); chain 1 MNPIVVVHGGGAGPISKDRKERVHQGMVRAATVGYGILREGGSAVDAVEGAVVALEDDPEFNAGCGSVLNTNGEVEMDASIMDGKDLSAGAVSAVQCIANPIKLARLVMEKTPHCFLTDQGAAQFAAAMGVPEIPGEKLVTERNKKRLEKEKHEKGAQKTDCQKNLG; chain 2 TVGAVALDCKGNVAYATSTGGIVNKMVGRVGDSPCLGAGGYADNDIGAVSTTGHGESILKVNLARLTLFHIEQGKTVEEAADLSLGYMKSRVKGLGGLIVVSKTGDWVAKWTSTSMPWAAAKDGKLHFGIDPDDTTITDLP
B4: sacB Y196F/Y247F (Priestia megaterium, UniProt D5DC07); chain KGNDSKDFNNSYGISHITRDNMVKIPQQQNSDQFKVPAFDESTIKNIASAKGKNASGNTIDLDVWDSWPLQNADGTVATYHGYQIVFALAGDPKDSNDTSVYLFYKKAGDKSIDSWKNAGRVFKDSDKFVPNDPHLKNQTQEWSGSGTLTKDGKVRLFYTDYSGKQFGKQTLTTAQVNMSQPNDNTLKVDGVEDYKSIFDGDGKIYQTVQQFIDEGGFDTGDNHTLRDPHYIEDNGHKYLVFEANTGTEDGYQGEDSLYNRAYYGGNNPFFQSEKKKLLEGSNKEKASLANGALGIIELNDDYTLKKVMKPLITSNTVTDEIERANIFKKDGKWYLFTDSRGSKMTIDGIGQDDVYMLGYVSNTLTGKYKPLNDTGLVLHMDLDPNDKTFTYSHFAVPQTKGDNVVITSYMTNRGFYEDNHSTFAPSFLVNIDGSKTSVVKDRVLEQGQLTVDED
B5: protein Y93G (Thermus thermophilus, UniProt Q5SKR5); chain MSAPKPFVIGIAGGTASGKTTLAQALARTLGERVALLPMDHYYKDLGHLPLEERLRVNYDHPDAFDLALYLEHAQALLRGLPVEMPVYDFRAGTRSPRRTPVRPAPVVILEGILVLYPKELRDLMDLKVFVDADADERFIRRLKRDVLERGRSLEGVVAQYLEQVKPMHLHFVEPTKRYADVIVPRGGQNPVALEMLAAKALARLARMGAA
B6: carbamoyl phosphate synthetase large subunit A23K (Escherichia coli, UniProt P00968); chain PKRTDIKSILILGAGPIVIGQKCEFDYSGAQACKALREEGYRVILVNSNPATIMTDPEMADATYIEPIHWEVVRKIIEKERPDAVLPTMGGQTALNCALELERQGVLEEFGVTMIGATADAIDKAEDRRRFDVAMKKIGLETARSGIAHTMEEALAVAADVGFPCIIRPSFTMGGSGGGIAYNREEFEEICARGLDLSPTKELLIDESLIGWKEYEMEVVRDKNDNCIIVCSIENFDAMGIHTGDSITVAPAQTLTDKEYQIMRNASMAVLREIGVETGGSNVQFAVNPKNGRLIVIEMNPRVSRSSALASKATGFPIAKVAAKLAVGYTLDELMNDITGGRTPASFEPSIDYVVTKIPRFNFEKFAGANDRLTTQMKSVGEVMAIGRTQQESLQKALRGLEVGATGFDPKVSLDDPEALTKIRRELKDAGADRIWYIADAFRAGLSVDGVFNLTNIDRWFLVQIEELVRLEEKVAEVGITGLNADFLRQLKRKGFADARLAKLAGVREAEIRKLRDQYDLHPVYKRVDTCAAEFATDTAYMYSTYEEECEANPSTDREKIMVLGGGPNRIGQGIEFDYCCVHASLALREDGYETIMVNCNPETVSTDYDTSDRLYFEPVTLEDVLEIVRIEKPKGVIVQYGGQTPLKLARALEAAGVPVIGTSPDAIDRAEDRERFQHAVERLKLKQPANATVTAIEMAVEKAKEIGYPLVVRPSYVLGGRAMEIVYDEADLRRYFQTAVSVSNDAPVLLDHFLDDAVEVDVDAICDGEMVLIGGIMEHIEQAGVHSGDSACSLPAYTLSQEIQDVMRQQVQKLAFELQVRGLMNVQFAVKNNEVYLIEVNPRAARTVPFVSKATGVPLAKVAARVMAGKSLAEQGVTKEVIPPYYSVKEVVLPFNKFPGVDPLLGPEMRSTGEVMGVGRTFAEAFAKAQLGSNSTMKKHGRALLSVREGDKERVVDLAAKLLKQGFELDATHGTAIVLGEAGINPRLVNKVHEGRPHIQDRIKNGEYTYIINTTSGRRAIEDSRVIRRSALQYKVHYDTTLNGGFATAMALNADATEKVISVQEMHAQIK
Chain of UniProt A0A024SMV2 (whole entry, looked up): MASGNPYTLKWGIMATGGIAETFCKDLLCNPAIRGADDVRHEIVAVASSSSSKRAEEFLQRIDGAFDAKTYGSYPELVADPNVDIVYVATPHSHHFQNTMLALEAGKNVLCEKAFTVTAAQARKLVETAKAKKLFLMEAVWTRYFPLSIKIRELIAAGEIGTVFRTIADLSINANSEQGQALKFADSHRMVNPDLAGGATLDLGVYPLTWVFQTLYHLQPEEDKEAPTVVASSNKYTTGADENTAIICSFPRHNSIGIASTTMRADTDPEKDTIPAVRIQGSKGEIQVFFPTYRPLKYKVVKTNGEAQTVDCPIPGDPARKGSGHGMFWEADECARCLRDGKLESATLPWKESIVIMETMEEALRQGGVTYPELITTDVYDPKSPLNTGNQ
Chain of UniProt A4YGN2 (whole entry, looked up): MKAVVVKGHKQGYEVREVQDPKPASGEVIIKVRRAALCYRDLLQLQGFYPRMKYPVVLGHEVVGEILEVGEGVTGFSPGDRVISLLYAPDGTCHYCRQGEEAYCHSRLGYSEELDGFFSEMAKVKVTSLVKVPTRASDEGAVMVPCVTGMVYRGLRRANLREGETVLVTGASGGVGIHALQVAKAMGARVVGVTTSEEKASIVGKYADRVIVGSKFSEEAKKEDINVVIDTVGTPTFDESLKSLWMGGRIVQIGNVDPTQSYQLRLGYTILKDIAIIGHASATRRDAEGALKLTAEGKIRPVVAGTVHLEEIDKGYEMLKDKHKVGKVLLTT
Chain of UniProt P76043 (whole entry, looked up): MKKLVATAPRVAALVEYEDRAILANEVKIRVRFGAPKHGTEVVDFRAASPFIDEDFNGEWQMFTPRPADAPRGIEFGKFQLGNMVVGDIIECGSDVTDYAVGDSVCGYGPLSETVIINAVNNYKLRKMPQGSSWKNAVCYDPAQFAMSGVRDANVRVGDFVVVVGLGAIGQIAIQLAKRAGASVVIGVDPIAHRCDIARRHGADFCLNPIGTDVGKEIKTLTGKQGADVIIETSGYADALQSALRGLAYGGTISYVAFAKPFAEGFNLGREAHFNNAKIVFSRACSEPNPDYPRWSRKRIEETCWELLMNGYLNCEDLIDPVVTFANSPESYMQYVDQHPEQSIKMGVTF
Chain of UniProt Q9LUE2 (whole entry, looked up): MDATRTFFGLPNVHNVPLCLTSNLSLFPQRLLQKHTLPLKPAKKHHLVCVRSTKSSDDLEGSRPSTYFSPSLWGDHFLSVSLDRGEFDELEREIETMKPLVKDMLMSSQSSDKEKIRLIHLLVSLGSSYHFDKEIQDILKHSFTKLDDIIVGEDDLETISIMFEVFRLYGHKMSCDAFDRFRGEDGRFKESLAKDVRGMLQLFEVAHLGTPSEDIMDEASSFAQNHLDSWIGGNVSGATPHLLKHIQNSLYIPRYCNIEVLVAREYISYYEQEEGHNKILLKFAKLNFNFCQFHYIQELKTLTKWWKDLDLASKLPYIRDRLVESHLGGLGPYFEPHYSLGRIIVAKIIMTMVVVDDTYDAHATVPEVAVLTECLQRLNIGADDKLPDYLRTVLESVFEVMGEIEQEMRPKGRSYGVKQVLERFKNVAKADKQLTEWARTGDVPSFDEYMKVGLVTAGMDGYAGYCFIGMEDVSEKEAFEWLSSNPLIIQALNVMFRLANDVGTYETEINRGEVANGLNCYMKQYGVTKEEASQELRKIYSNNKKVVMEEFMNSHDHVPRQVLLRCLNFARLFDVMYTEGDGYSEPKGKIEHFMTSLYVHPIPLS
Chain of UniProt Q8QZR1 (whole entry, looked up): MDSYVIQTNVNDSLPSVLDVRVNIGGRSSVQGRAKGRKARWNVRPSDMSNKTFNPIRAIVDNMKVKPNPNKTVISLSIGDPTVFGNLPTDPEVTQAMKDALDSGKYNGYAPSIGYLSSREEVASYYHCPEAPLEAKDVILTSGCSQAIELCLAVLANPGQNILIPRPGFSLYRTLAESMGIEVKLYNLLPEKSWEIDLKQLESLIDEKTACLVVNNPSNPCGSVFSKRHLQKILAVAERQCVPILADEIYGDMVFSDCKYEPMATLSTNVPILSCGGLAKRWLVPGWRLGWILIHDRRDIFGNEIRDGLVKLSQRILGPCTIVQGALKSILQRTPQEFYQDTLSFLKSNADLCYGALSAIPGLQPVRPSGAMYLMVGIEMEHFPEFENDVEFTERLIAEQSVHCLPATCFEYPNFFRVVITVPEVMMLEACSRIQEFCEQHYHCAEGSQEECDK

For `ycjQ (Escherichia coli, UniProt P76043)`, the Km was 2300 µM (CO[C@@H]1O[C@H](CO)[C@H](O)C(=O)[C@H]1O; pH 7, 30 °C, together with: NADH 0.3 mM, MnCl2 0.5 mM).
`B1 (Pck1 A467G)` has a Km of 63 µM (C=C(OP(=O)(O)O)C(=O)O; pH 7.5, 25 °C).
With `enzyme (Trichoderma reesei, UniProt A0A024SMV2)` the Km was 250 µM (NC(=O)c1ccc[n+]([C@@H]2O[C@H](COP(=O)(O)OP(=O)(O)OC[C@H]3O[C@@H](n4cnc5c(N)ncnc54)[C@H](OP(=O)(O)O)[C@@H]3O)[C@@H](O)[C@H]2O)c1; pH 8.1, 30 °C, cofactor varied).
`acryloyl-CoA reductase (Metallosphaera sedula, UniProt A4YGN2)` has a Km of 9.1 µM (C=CC(=O)SCCNC(=O)CCNC(=O)[C@H](O)C(C)(C)COP(=O)(O)OP(=O)(O)OC[C@H]1O[C@@H](n2cnc3c(N)ncnc32)[C@H](O)[C@@H]1OP(=O)(O)O; pH 6.5, 65 °C, substrate made in situ, together with: ATP, CoA, NADPH).
`protein (Candidatus Protochlamydia amoebophila, UniProt Q6MEN4)` has a Km of 676 µM (O=c1ccn([C@@H]2O[C@H](COP(=O)(O)OP(=O)(O)OP(=O)(O)O)[C@@H](O)[C@H]2O)c(=O)[nH]1; pH 7, 30 °C, transporter, labelled substrate, apparent, not purified).
`B2 (mleA)` gave a Km of 5300 µM (O=C(O)C[C@H](O)C(=O)O; pH 6, 45 °C).
`B3 (ASRGL1)` has a Km of 400 µM (N[C@@H](CC(=O)N[C@@H](Cc1ccccc1)C(=O)O)C(=O)O; pH 7.4, 37 °C, NaCl 100 mM).
With `B4 (sacB Y196F/Y247F)` the Km was 16700 µM (OC[C@H]1O[C@@](CO)(O[C@H]2O[C@H](CO)[C@@H](O)[C@H](O)[C@H]2O)[C@@H](O)[C@@H]1O; pH 6.9).
`B5 (protein Y93G)` gave a Km of 620 µM (Nc1ccn([C@@H]2O[C@H](CO)[C@@H](O)[C@H]2O)c(=O)n1; pH 7.2, 25 °C, KCl 100 mM, together with: ATP 100–200 µM).
For `AtTPS18 (Arabidopsis thaliana, UniProt Q9LUE2)`, the Km was 4.79 µM (CC(C)=CCC/C(C)=C/CC/C(C)=C/CC/C(C)=C/CC/C(C)=C/COP(=O)(O)OP(=O)(O)O; pH 7.5, 30 °C, product C7 measured, together with: Mg2+ 10 mM).
`B6` gave a Km of 380 µM (Nc1ncnc2c1ncn2[C@@H]1O[C@H](COP(=O)(O)OP(=O)(O)OP(=O)(O)O)[C@@H](O)[C@H]1O; pH 7.6, KCl 100 mM, together with: glutamine 10 mM, ornithine 10 mM).
`enzyme (Mortierella alpina, UniProt U5Y3C6)` has a Km of 5.4 µM (CCCCCCCC/C=C\CCCCCCCC(=O)SCCNC(=O)CCNC(=O)[C@H](O)C(C)(C)COP(=O)(O)OP(=O)(O)OC[C@H]1O[C@@H](n2cnc3c(N)ncnc32)[C@H](O)[C@@H]1OP(=O)(O)O; pH 7.5, 28 °C).
The Km of `Tat (Mus musculus, UniProt Q8QZR1)` is reported as 700 µM (O=C(O)C(=O)Cc1ccc(O)cc1; pH 7, 38 °C, together with: PLP).

For quick reference, copied from above:
`protein (Candidatus Protochlamydia amoebophila, UniProt Q6MEN4)` has a Km of 676 µM (O=c1ccn([C@@H]2O[C@H](COP(=O)(O)OP(=O)(O)OP(=O)(O)O)[C@@H](O)[C@H]2O)c(=O)[nH]1; pH 7, 30 °C, transporter, labelled substrate, apparent, not purified).
With `B4 (sacB Y196F/Y247F)` the Km was 16700 µM (OC[C@H]1O[C@@](CO)(O[C@H]2O[C@H](CO)[C@@H](O)[C@H](O)[C@H]2O)[C@@H](O)[C@@H]1O; pH 6.9).
